Measurements gathered from unrelated publications.
Each numbered part is a random draw from the data of one study; scales do not carry over between parts. Positions count from the first letter of the parent shown.

Sample 1 — technique: protein binding microarray; molecule type: double-stranded DNA, one strand shown; sample: in vitro; tested at: not given; relative to: not given; reading: higher = stronger binding
Target: Histone acetyltransferase KAT6A, winged helix 1, GST fusion (KAT6A, Homo sapiens, UniProt Q92794, residues 1-85)
Notes: 8-mer, flanks averaged, mean of 2 arrays, mostly near background
Target sequence (chain): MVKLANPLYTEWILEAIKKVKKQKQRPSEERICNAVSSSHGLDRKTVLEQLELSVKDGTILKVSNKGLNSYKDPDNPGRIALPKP
`CGTCTTAC` has an E-score of 0.0374.
The E-score of `AATTGCGT` is reported as 0.186.
The E-score of `GGATGTTA` is reported as 0.123.
With `GCATTGTA` the E-score was 0.0795.
`GAGATTCC` gave an E-score of -0.055.
With `AGGCTAAG` the E-score was -0.104.
`ATGGATCA` gave an E-score of -0.247.
For `GAGCCCTC`, the E-score was 0.00589.
`AGATCTGA` gave an E-score of -0.0983.
`ATCGACAA` gave an E-score of -0.0722.
For `AGGAGCCG`, the E-score was 0.127.
With `CACGTTGA` the E-score was -0.178.
`CTCGTAAG` gave an E-score of 0.00991.

Sample 2 — target: CCNF, cyclin fold, Cln2 fusion (human); technique: yeast growth competition, sequencing; sample: yeast; notes: strong parent motif; relative to: not given; reading: higher = stronger binding
Starting sequence: ORC1 docking peptide (human); PRARKRLELGNLG
`PRARKRLELGKLG [N11K]`: “normalised enrichment score” 2.45.
`PRARKRLELQNLG [G10Q]` — result for “normalised enrichment score”: 2.61.
`PRPRKRLELGNLG [A3P]`: “normalised enrichment score” 1.33.
For `SRARKRLELGNLG [P1S]`, “normalised enrichment score” read 2.85.
Under “normalised enrichment score”, `PRARKRLELGNFG [L12F]` is recorded as 4.77.
`PRARKRLELGNGG [L12G]`: “normalised enrichment score” 2.76.
Under “normalised enrichment score”, `PRARKRGELGNLG [L7G]` is recorded as 0.713.
Under “normalised enrichment score”, `PRARKRLELGNLI [G13I]` is recorded as 3.68.
`PSARKRLELGNLG [R2S]` — result for “normalised enrichment score”: 3.95.
For `PRFRKRLELGNLG [A3F]`, “normalised enrichment score” read 0.97.
`PRARKRRELGNLG [L7R]` — result for “normalised enrichment score”: 1.33.
`PRARKRLELGNRG [L12R]`: “normalised enrichment score” 2.38.
For `PKARKRLELGNLG [R2K]`, “normalised enrichment score” read 3.79.

Mixed results
For `COPB1 (Homo sapiens, UniProt P53618)`, cross-linked residues read “S528 to K39” (COPZ1 (Homo sapiens, UniProt P61923); cross-linking MS; cell fractions; added: DSSO).
The fold induction of `PhoQ, residues 284 288 289 292 302 303 ASASEQ` is reported as 1.04 (PhoP, residues 12 14 15 18 19 SGWQI (Escherichia coli, UniProt P23836); Sort-seq, item: YFP reporter; E. coli; PhoQ-PhoP variant library, added: 10 µM Mg2+; relative to: high Mg2+ state, higher = stronger signaling).
`ATP5PO (Homo sapiens, UniProt P48047)` — result for cross-linked residues: “K84 to K71” (LCN10 (Homo sapiens, UniProt Q6JVE6); cross-linking MS; cell fractions; added: DSSO).
`GALNT2 (Homo sapiens, UniProt Q10471)`: cross-linked residues “K546 to D165” (TMED4 (Homo sapiens, UniProt Q7Z7H5); cross-linking MS; cell fractions; added: DMTMM).
`ASNS (Homo sapiens, UniProt P08243)` — result for cross-linked residues: “K244 to T318” (STXBP2 (Homo sapiens, UniProt Q15833); cross-linking MS; cell fractions; added: DSSO).

Repeated from above (sample 1):
The E-score of `GGATGTTA` is reported as 0.123.
With `GCATTGTA` the E-score was 0.0795.
`GAGATTCC` gave an E-score of -0.055.
